Measured values of several laboratories.
Compare with care: the assays were run in different laboratories.
U2AF2: U2AF2 148-342 (Homo sapiens, UniProt P26368)
Sequence of UniProt P26368 (whole entry, looked up): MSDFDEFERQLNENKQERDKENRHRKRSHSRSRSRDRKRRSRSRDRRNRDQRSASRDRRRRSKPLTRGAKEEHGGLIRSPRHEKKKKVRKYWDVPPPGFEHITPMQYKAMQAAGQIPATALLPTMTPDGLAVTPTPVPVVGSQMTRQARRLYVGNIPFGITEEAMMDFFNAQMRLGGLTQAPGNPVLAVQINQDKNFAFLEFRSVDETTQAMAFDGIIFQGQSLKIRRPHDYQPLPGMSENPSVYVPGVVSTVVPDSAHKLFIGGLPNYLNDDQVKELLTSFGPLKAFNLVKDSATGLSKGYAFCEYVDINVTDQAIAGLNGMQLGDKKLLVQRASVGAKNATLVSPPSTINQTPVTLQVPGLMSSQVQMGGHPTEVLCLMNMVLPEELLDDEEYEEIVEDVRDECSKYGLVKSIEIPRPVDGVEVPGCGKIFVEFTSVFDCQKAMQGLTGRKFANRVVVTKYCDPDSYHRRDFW
B1: CRYAA R21Q (Homo sapiens, UniProt P02489); sequence looked up; chain MDVTIQHPWFKRTLGPFYPSQLFDQFFGEGLFEYDLLPFLSSTISPYYRQSLFRTVLDSGISEVRSDRDKFVIFLDVKHFSPEDLTVKVQDDFVEIHGKHNERQDDHGYISREFHRRYRLPSNVDQSALSCSLSADGMLTFCGPKIQTGLDATHAERAIPVSREEKPTSAPSS
B2: human CAP1; sequence looked up; chain ADMQNLVERLERAVGRLEAVSHTSDMHRGYADSPSKAGAAPYVQAFDSLLAGPVAEYLKISKEIGGDVQKHAEMVHTGLKLERALLVTASQCQQPAENKLSDLLAPISEQIKEVITFREKNRGSKLFNHLSAVSESIQALGWVAMAPKPGPYVKEMNDAAMFYTNRVLKEYKDVDKKHVDWVKAYLSIWTELQAYIKEFHTTGLAWSKTGPVAKELSGLPSGPSAGSCPPPPPPCPPPPPVSTISCSYESASRSSLFAQINQGESITHALKHVSDDMKTHKNPALKAQSGPVRSGPKPFSAPKPQTSPSPKRATKKEPAVLELEGKKWRVENQENVSNLVIEDTELKQVAYIYKCVNTTLQIKGKINSITVDNCKKLGLVFDDVVGIVEIINSKDVKVQVMGKVPTISINKTDGCHAYLSKNSLDCEIVSAKSSEMNVLIPTEGGDFNEFPVPEQFKTLWNGQKLVTTVTEIAG
B3: cdc15 19-312 (Schizosaccharomyces pombe, UniProt Q09822); sequence looked up; chain SVKFRDNFWGSEDAGMDALMSRTKSSLSVLESIDEFYAKRASIEREYASKLQELAASSADIPEVGSTLNNILSMRTETGSMAKAHEEVSQQINTELRNKIREYIDQTEQQKVVAANAIEELYQKKTALEIDLSEKKDAYEYSCNKLNSYMRQTKKMTGRELDKYNLKIRQAALAVKKMDAEYRETNELLLTVTREWIDRWTEVCDAFQHIEEYRLEFLKTNMWAYANIISTACVKDDESCEKIRLTLENTNIDEDITQMIQNEGTGTTIPPLPEFNDYFKENGLNYDIDQLISK
B4: clcA 1-465 C85A/A237C (Escherichia coli, UniProt P37019); chain MKTDTPSLETPQAARLRRRQLIRQLLERDKTPLAILFMAAVVGTLVGLAAVAFDKGVAWLQNQRMGALVHTADNYPLLLTVAFLASAVLAMFGYFLVRKYAPEAGGSGIPEIEGALEDQRPVRWWRVLPVKFFGGLGTLGGGMVLGREGPTVQIGGNIGRMVLDIFRLKGDEARHTLLATGAAAGLAAAFNAPLAGILFIIEEMRPQFRYTLISIKAVFIGVIMSTIMYRIFNHEVCLIDVGKLSDAPLNTLWLYLILGIIFGIFGPIFNKWVLGMQDLLHRVHGGNITKWVLMGGAIGGLCGLLGFVAPATSGGGFNLIPIATAGNFSMGMLVFIFVARVITTLLCFSSGAPGGIFAPMLALGTVLGTAFGMVAVELFPQYHLEAGTFAIAGMGALLAASIRAPLTGIILVLEMTDNYQLILPMIITGLGATLLAQFTGGKPLYSAILARTLAKQEAEQLARSK
B5: SPOP S96R (Homo sapiens, UniProt O43791); sequence looked up; chain MSRVPSPPPPAEMSSGPVAESWCYTQIKVVKFSYMWTINNFSFCREEMGEVIKSSTFSSGANDKLKWCLRVNPKGLDEESKDYLSLYLLLVSCPKREVRAKFKFSILNAKGEETKAMESQRAYRFVQGKDWGFKKFIRRDFLLDEANGLLPDDKLTLFCEVSVVQDSVNISGQNTMNMVKVPECRLADELGGLWENSRFTDCCLCVAGQEFQAHKAILAARSPVFSAMFEHEMEESKKNRVEINDVEPEVFKEMMCFIYTGKAPNLDKMADDLLAAADKYALERLKVMCEDALCSNLSVENAAEILILADLHSADQLKTQAVDFINYHASDVLETSGWKSMVVSHPHLVAEAYRSLASAQCPFLGPPRKRLKQS
B6: ph-p 1397-1577 D33K/D34R (Drosophila melanogaster, UniProt P39769); chain GVGSGETNGLGTGGIVGVDAMALVDRLDEAMAEEKMQTEATPKLSESFPILGASTEVPPMSLPVQAAISAPSPLAMPLGSPLSVALPTLAPLSVVTSGAAPKSSEVNGTDRPPISSWSVDDVSNFIRELPGCQDYVKRFIQQEIDGQALLLLKEKHLVNAMGMKLGPALKIVAKVESIKEV
B7: PRDX3 S139E/A142E (Homo sapiens, UniProt P30048); chain APAVTQHAPYFKGTAVVNGEFKDLSLDDFKGKYLVLFFYPLDFTFVCPTEIVAFSDKANEFHDVNCEVVAVSVDSHFEHLEWINTPRKNGGLGHMNIALLSDLTKQISRDYGVLLEGSGLALRGLFIIDPNGVIKHLSVNDLPVGRSVEETLRLVKAFQYVETHGEVCPANWTPDSPTIKPSPAASKEYFQKVNQ
B8: FCY1 (yeast, UniProt Q12178); sequence looked up; chain MVTGGMASKWDQKGMDIAYEEAALGYKEGGVPIGGCLINNKDGSVLGRGHNMRFQKGSATLHGEISTLENCGRLEGKVYKDTTLYTTLSPCDMCTGAIIMYGIPRCVVGENVNFKSKGEKYLQTRGHEVVVVDDERCKKIMKQFIDERPQDWFEDIGE
B9: dlg1 1-97 F41A (Drosophila melanogaster, UniProt P31007); sequence looked up; chain MPVKKQEAHRALELLEDYHARLSEPQDRALRIAIERVIRIAKSRLFQALLDIQEFYELTLLDDSKSIQQKTAETLQIATKWEKDGQAVKIADFIKSS
B10: TOP2 C180A/C731A/K804C (Saccharomyces cerevisiae, UniProt P06786); AlexaFluor 488/546 labels; sequence looked up; chain MSTEPVSASDKYQKISQLEHILKRPDTYIGSVETQEQLQWIYDEETDCMIEKNVTIVPGLFKIFDEILVNAADNKVRDPSMKRIDVNIHAEEHTIEVKNDGKGIPIEIHNKENIYIPEMIFGHLLTSSNYDDDEKKVTGGRNGYGAKLCNIFSTEFILETADLNVGQKYVQKWENNMSIAHPPKITSYKKGPSYTKVTFKPDLTRFGMKELDNDILGVMRRRVYDINGSVRDINVYLNGKSLKIRNFKNYVELYLKSLEKKRQLDNGEDGAAKSDIPTILYERINNRWEVAFAVSDISFQQISFVNSIATTMGGTHVNYITDQIVKKISEILKKKKKKSVKSFQIKNNMFIFINCLIENPAFTSQTKEQLTTRVKDFGSRCEIPLEYINKIMKTDLATRMFEIADANEENALKKSDGTRKSRITNYPKLEDANKAGTKEGYKCTLVLTEGDSALSLAVAGLAVVGRDYYGCYPLRGKMLNVREASADQILKNAEIQAIKKIMGLQHRKKYEDTKSLRYGHLMIMTDQDHDGSHIKGLIINFLESSFPGLLDIQGFLLEFITPIIKVSITKPTKNTIAFYNMPDYEKWREEESHKFTWKQKYYKGLGTSLAQEVREYFSNLDRHLKIFHSLQGNDKDYIDLAFSKKKADDRKEWLRQYEPGTVLDPTLKEIPISDFINKELILFSLADNIRSIPNVLDGFKPGQRKVLYGCFKKNLKSELKVAQLAPYVSEATAYHHGEQSLAQTIIGLAQNFVGSNNIYLLLPNGAFGTRATGGKDAAAARYIYTELNKLTRKIFHPADDPLYCYIQEDEKTVEPEWYLPILPMILVNGAEGIGTGWSTYIPPFNPLEIIKNIRHLMNDEELEQMHPWFRGWTGTIEEIEPLRYRMYGRIEQIGDNVLEITELPARTWTSTIKEYLLLGLSGNDKIKPWIKDMEEQHDDNIKFIITLSPEEMAKTRKIGFYERFKLISPISLMNMVAFDPHGKIKKYNSVNEILSEFYYVRLEYYQKRKDHMSERLQWEVEKYSFQVKFIKMIIEKELTVTNKPRNAIIQELENLGFPRFNKEGKPYYGSPNDEIAEQINDVKGATSDEEDEESSHEDTENVINGPEELYGTYEYLLGMRIWSLTKERYQKLLKQKQEKETELENLLKLSAKDIWNTDLKAFEVGYQEFLQRDAEARGGNVPNKGSKTKGKGKRKLVDDEDYDPSKKNKKSTARKGKKIKLEDKNFERILLEQKLVTKSKAPTKIKKEKTPSVSETKTEEEENAPSSTSSSSIFDIKKEDKDEGELSKISNKFKKISTIFDKMGSTSATSKENTPEQDDVATKKNQTTAKKTAVKPKLAKKPVRKQQKVVELSGESDLEILDSYTDREDSNKDEDDAIPQRSRRQRSSRAASVPKKSYVETLELSDDSFIEDDEEENQGSDVSFNEED
B11: IL2 mature E62A (Bos taurus, UniProt P05016); sequence looked up; chain APTSSSTGNTMKEVKSLLLDLQLLLEKVKNPENLKLSRMHTFDFYVPKVNATELKHLKCLLAELKLLEEVLNLAPSKNLNPREIKDSMDNIKRIVLELQGSETRFTCEYDDATVNAVEFLNKWITFCQSIYSTMT
B12: OAC1 (Saccharomyces cerevisiae, UniProt P32332); sequence looked up; chain MSSDNSKQDKQIEKTAAQKISKFGSFVAGGLAACIAVTVTNPIELIKIRMQLQGEMSASAAKVYKNPIQGMAVIFKNEGIKGLQKGLNAAYIYQIGLNGSRLGFYEPIRSSLNQLFFPDQEPHKVQSVGVNVFSGAASGIIGAVIGSPLFLVKTRLQSYSEFIKIGEQTHYTGVWNGLVTIFKTEGVKGLFRGIDAAILRTGAGSSVQLPIYNTAKNILVKNDLMKDGPALHLTASTISGLGVAVVMNPWDVILTRIYNQKGDLYKGPIDCLVKTVRIEGVTALYKGFAAQVFRIAPHTIMCLTFMEQTMKLVYSIESRVLGHN
B13: ZBTB9 17-148 (Homo sapiens, UniProt Q96C00); sequence looked up; chain NPAPRTIQIEFPQHSSSLLESLNRHRLEGKFCDVSLLVQGRELRAHKAVLAAASPYFHDKLLLGDAPRLTLPSVIEADAFEGLLQLIYSGRLRLPLDALPAHLLVASGLQMWQVVDQCSEILRELETSGGGI
Sequence of UniProt P21980 (whole entry, looked up): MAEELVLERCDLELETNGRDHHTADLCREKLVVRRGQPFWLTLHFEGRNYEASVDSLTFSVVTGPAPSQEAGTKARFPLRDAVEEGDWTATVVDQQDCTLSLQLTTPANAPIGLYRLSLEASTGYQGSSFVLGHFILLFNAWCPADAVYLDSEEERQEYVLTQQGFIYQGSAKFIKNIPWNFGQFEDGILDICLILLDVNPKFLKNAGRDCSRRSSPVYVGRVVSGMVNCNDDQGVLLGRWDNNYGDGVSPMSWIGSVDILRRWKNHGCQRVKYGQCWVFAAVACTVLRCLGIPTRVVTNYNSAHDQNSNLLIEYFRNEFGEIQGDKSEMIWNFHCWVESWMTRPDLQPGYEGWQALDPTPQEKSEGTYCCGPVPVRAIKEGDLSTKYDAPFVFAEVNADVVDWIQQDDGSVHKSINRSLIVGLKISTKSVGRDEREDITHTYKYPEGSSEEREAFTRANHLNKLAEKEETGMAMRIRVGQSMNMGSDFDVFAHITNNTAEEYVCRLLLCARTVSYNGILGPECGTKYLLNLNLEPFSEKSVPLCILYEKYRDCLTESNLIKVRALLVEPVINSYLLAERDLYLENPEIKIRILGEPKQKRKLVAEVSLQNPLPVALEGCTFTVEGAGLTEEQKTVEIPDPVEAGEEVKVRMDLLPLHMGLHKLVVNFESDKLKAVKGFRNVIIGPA
Sequence of UniProt O15523 (whole entry, looked up): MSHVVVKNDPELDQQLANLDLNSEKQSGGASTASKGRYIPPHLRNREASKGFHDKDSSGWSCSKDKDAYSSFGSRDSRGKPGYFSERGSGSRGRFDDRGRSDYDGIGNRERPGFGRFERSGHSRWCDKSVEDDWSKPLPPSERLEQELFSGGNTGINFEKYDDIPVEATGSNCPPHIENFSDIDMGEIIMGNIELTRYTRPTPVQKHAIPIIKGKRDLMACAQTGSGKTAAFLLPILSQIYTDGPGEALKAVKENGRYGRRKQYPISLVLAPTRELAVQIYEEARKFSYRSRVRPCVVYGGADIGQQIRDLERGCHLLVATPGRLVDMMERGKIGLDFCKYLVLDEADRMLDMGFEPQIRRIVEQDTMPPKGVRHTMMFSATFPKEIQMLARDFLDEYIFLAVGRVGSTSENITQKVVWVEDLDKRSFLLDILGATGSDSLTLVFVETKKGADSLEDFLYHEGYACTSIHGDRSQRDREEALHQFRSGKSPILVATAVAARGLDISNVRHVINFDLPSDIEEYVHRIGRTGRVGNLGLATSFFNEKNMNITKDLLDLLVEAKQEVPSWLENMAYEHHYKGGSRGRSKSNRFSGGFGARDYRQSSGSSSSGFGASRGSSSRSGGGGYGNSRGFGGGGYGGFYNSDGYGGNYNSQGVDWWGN

| Molecule | tested on | assay | test system | setting | how to read | measurement | result |
| --- | --- | --- | --- | --- | --- | --- | --- |
| B1 (CRYAA R21Q) | itself | SEC-MALS | – | 1 hour h, pH 7.4, 37 °C | – | binding | binds |
| B2 (human CAP1) | CYB5R4 knockout human cells | PP4 interaction, 3xFLAG-PP4C IP-MS | – | concentration not given | relative to: CYB5R4 KO over parental | log2 fold change | -0.33 |
| B3 (cdc15 19-312) | itself | negative stain electron microscopy | – | – | – | binding | binds |
| human filamin B | CYB5R4 knockout human cells | PP4 interaction, 3xFLAG-PP4C IP-MS | – | concentration not given | relative to: CYB5R4 KO over parental | log2 fold change | 0.22 |
| B4 (clcA 1-465 C85A/A237C) | itself | SEC | – | – | – | binding | binds |
| B5 (SPOP S96R) | itself | negative-stain TEM | – | – | – | binding | binds |
| B6 (ph-p 1397-1577 D33K/D34R) | itself | AUC | – | sedimentation velocity, self-association | – | binding | binds |
| GUGGUUCUC (ssRNA) | U2AF2 | sequencing of bound RNA | RNA | motif only | – | Kd | 11.8 µM |
| B7 (PRDX3 S139E/A142E) | itself | cross-linking | – | – | – | binding | binds |
| B8 (FCY1) | itself | crystal structure | – | – | – | binding | binds |
| QSQSGYSQSYGGYEN (TAF15 58-72 (Homo sapiens, UniProt Q92804); N-acetyl/C-amide; sequence looked up) | itself | negative-stain TEM | peptide | peptide | – | binding | binds |
| AUUUUCCUA (ssRNA) | U2AF2 | sequencing of bound RNA | RNA | motif only | – | Kd | 6.19 µM |
| DDX3Y (Homo sapiens, UniProt O15523) | itself | mass photometry | – | – | – | binding | binds |
| B9 (dlg1 1-97 F41A) | itself | SEC | – | – | – | binding | binds |
| B10 (TOP2 C180A/C731A/K804C) | itself | FRET or BRET | – | with: ADP, ATP, ADPNP | – | binding | binds |
| MAKNSNPSAFDRDFGYLMPFLDRVAAAASDLEDASARAELTRLMVEEKARWQRIQELLGG (encD 1-60 (Myxococcus xanthus, UniProt Q1D9P3); sequence looked up) | itself | crystal structure | – | – | – | binding | binds |
| B11 (IL2 mature E62A) | itself | SDS-PAGE | – | – | – | binding | binds |
| GGGAGCAGGAGAGAGGUCAGAUGUGUAGGGAAUGACCGGGGUCCUUAACGCUUCCUAUGCGUGCUAGUGUGA (ssRNA; 2'-fluoro pyrimidines) | TGM2 2-687 (Homo sapiens, UniProt P21980) | SPR | RNA | with: MgCl2 5 mM | higher = more binding | relative binding | 316 RU |
| B12 (OAC1) | itself | pull-down | – | – | – | binding | binds |
| B13 (ZBTB9 17-148) | itself | negative-stain electron microscopy | – | – | – | binding | binds |
